# Experimental data gathered from unrelated publications.
# Each numbered part is a random draw from the data of one study; scales do not carry over between parts. Several values in a cell are separate wells, animals, samples, runs or records.
# UniProt Q16288, sequence (whole entry, looked up): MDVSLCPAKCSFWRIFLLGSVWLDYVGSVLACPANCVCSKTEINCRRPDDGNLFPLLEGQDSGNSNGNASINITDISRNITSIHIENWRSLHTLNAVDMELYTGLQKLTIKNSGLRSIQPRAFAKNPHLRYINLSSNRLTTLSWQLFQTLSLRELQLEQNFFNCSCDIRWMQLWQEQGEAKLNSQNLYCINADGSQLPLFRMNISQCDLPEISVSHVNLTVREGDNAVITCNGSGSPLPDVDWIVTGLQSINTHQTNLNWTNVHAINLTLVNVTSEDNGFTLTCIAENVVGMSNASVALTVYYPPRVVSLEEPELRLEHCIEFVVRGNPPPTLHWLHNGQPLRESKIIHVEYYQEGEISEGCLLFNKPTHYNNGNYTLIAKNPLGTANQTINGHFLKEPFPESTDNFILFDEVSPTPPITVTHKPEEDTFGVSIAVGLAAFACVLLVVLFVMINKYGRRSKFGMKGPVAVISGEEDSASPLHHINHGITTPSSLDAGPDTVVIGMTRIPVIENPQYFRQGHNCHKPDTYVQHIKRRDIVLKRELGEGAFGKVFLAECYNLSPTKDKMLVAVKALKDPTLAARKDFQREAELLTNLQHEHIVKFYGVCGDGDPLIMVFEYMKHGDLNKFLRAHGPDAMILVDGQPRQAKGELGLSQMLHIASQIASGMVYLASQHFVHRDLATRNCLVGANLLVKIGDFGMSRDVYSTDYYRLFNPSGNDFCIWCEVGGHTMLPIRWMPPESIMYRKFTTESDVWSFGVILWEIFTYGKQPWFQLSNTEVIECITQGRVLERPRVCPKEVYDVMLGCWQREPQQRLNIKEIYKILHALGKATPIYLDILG
# UniProt O15111, sequence (whole entry, looked up): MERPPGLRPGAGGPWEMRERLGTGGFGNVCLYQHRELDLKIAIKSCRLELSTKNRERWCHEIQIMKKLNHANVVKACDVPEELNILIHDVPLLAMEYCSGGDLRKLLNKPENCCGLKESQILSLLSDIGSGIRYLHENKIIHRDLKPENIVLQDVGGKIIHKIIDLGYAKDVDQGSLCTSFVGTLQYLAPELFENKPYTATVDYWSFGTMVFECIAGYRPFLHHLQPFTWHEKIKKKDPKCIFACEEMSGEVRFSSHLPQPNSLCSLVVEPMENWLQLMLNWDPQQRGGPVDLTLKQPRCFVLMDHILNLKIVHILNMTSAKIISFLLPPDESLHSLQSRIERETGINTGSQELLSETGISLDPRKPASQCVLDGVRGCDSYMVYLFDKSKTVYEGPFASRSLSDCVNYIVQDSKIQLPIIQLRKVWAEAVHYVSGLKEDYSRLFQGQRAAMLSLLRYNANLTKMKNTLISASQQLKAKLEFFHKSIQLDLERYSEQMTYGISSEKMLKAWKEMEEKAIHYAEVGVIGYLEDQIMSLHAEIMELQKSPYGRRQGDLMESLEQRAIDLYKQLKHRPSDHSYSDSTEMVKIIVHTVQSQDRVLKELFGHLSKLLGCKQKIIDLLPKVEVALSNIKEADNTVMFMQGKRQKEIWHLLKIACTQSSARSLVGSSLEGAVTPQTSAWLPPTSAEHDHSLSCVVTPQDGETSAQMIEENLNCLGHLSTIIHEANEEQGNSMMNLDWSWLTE
# UniProt O75676, sequence (whole entry, looked up): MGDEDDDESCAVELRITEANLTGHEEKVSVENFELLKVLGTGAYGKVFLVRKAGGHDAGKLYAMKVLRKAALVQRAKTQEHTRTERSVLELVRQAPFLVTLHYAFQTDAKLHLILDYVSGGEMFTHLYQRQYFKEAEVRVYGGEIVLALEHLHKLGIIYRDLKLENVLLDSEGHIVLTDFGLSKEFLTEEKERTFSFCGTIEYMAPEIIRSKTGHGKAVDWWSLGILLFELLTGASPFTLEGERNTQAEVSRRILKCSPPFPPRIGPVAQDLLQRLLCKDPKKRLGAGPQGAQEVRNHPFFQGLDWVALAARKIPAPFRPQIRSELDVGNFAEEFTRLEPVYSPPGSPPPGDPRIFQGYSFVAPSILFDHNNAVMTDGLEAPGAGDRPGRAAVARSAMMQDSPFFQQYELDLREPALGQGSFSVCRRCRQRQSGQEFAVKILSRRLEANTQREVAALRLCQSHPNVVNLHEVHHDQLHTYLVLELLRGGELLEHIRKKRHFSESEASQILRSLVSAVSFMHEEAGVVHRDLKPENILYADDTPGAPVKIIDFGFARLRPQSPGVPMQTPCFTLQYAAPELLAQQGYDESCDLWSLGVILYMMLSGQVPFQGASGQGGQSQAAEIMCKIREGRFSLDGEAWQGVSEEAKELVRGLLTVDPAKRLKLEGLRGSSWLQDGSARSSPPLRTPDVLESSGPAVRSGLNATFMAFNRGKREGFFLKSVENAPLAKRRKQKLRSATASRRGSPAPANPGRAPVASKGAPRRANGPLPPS
# UniProt O96013, sequence (whole entry, looked up): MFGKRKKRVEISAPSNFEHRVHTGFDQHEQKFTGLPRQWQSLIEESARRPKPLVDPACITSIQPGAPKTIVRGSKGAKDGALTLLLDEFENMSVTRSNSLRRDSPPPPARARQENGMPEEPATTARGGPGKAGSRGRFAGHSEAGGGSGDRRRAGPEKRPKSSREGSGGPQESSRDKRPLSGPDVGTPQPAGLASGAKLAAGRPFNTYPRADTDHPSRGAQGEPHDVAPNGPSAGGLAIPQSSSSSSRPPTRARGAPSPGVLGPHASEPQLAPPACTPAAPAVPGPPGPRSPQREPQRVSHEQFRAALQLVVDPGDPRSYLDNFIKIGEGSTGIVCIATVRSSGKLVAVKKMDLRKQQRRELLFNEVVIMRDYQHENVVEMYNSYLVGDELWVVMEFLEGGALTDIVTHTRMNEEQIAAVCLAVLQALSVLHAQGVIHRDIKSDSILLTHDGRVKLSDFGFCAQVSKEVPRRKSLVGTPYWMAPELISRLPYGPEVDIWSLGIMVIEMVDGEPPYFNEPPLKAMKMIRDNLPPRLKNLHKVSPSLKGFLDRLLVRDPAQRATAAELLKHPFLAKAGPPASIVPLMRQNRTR
# UniProt Q9HAZ1, sequence (whole entry, looked up): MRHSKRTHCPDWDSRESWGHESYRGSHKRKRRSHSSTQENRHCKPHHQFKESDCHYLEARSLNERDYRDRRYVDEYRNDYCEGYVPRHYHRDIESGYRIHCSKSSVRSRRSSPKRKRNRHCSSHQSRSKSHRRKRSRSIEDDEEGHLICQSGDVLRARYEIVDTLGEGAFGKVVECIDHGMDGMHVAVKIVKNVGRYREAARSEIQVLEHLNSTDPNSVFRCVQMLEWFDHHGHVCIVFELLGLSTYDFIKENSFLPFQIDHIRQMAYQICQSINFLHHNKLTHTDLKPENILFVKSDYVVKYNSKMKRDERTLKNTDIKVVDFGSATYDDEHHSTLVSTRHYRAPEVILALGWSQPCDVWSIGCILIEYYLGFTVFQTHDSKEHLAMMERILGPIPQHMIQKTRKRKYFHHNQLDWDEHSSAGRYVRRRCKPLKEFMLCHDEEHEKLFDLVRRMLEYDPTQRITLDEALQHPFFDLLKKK
# UniProt Q86YV6, sequence (whole entry, looked up): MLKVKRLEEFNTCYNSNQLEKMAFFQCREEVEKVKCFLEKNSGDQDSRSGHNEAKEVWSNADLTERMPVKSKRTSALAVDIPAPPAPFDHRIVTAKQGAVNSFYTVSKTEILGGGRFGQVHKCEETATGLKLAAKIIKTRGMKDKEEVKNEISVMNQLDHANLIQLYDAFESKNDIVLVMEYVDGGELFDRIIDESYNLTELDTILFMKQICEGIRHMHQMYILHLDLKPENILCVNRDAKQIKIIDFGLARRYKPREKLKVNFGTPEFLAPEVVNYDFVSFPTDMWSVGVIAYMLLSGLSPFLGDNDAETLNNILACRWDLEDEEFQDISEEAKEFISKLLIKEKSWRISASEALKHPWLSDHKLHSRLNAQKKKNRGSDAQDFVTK
# UniProt Q8IU85, sequence (whole entry, looked up): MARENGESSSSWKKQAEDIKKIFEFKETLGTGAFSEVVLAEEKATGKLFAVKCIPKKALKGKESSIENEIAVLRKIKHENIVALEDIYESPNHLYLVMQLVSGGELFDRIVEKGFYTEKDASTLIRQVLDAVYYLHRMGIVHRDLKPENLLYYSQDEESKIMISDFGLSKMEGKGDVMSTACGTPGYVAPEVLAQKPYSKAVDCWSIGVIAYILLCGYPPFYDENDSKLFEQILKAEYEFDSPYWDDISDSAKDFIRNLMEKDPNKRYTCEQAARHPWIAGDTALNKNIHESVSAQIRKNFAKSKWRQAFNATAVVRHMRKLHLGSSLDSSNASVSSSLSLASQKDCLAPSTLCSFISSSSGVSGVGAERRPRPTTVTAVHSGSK

# Block 1
# Compound: CCOC(=O)c1cc2cc(-c3cc(C(=O)NCc4ccc(C(=O)O)cc4)nn3C)ccc2[nH]1
# Effect on: cell-free assay
# Technique: competition with immobilised ligand
# Concentration: 0.1 µM
target,remaining binding [%]
"BUB1 (Homo sapiens, UniProt O43683)",100
"NTRK3 (Homo sapiens, UniProt Q16288)",94
"CLK4 (Homo sapiens, UniProt Q9HAZ1)",89
"DYRK1A (Homo sapiens, UniProt Q13627)",90
"LIM domain kinase 2 (LIMK2, Homo sapiens, UniProt P53671)",96
"PAK4 (Homo sapiens, UniProt O96013)",100
"CAMK1D (Homo sapiens, UniProt Q8IU85)",100
"MYLK4 (Homo sapiens, UniProt Q86YV6)",100
"Tyrosine-protein kinase ABL1, non-phosphorylated (ABL1, Homo sapiens, UniProt P00519, H396P)",88
"CHUK (Homo sapiens, UniProt O15111)",100
"MAP2K1 (Homo sapiens, UniProt Q02750)",90
"EGFR (Homo sapiens, UniProt P00533, del747-750/T751S)",100
"Ribosomal protein S6 kinase alpha-4, N-terminal kinase domain (RPS6KA4, Homo sapiens, UniProt O75676)",88
"MKNK2 (Homo sapiens, UniProt Q9HBH9)",92
"CDK11B (Homo sapiens, UniProt P21127)",98
"TLK1 (Homo sapiens, UniProt Q9UKI8)",83
"Tyrosine-protein kinase ABL1, non-phosphorylated (ABL1, Homo sapiens, UniProt P00519)",81
"CLK1 (Homo sapiens, UniProt P49759)",100

# Block 2
# Target: Serine/threonine-protein kinase haspin (HASPIN, Homo sapiens, UniProt Q8TF76)
# UniProt Q8TF76, sequence (whole entry, looked up): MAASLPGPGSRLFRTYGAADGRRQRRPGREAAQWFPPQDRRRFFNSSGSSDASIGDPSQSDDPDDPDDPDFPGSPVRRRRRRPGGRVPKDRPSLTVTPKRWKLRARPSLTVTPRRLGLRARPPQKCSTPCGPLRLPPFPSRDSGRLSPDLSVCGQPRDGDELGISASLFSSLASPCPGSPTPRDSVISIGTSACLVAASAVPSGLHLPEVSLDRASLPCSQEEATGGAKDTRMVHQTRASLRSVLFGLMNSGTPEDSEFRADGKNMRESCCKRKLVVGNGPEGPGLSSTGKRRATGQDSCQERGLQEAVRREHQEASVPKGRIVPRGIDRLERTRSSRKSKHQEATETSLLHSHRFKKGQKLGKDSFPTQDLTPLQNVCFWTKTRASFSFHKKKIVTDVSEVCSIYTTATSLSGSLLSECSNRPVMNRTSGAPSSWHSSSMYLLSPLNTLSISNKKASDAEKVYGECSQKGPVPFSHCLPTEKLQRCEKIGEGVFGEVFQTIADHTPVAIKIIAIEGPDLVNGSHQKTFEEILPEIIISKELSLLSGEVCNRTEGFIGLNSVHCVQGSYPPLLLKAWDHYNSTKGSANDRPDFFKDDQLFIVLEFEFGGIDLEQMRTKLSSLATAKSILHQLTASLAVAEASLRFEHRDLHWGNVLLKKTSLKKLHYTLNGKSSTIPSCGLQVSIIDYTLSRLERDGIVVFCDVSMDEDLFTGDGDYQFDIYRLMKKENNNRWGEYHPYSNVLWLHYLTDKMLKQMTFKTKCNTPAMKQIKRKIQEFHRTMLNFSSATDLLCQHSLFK
# Effect on: enzyme activity
# Action: inhibitor
# Concentration: 0.5 µM
# Relative to: control
Structure (SMILES),remaining activity [%]
c1ccc(-c2n[nH]c3c2oc2ccccc23)cc1,99.3
O=c1cc(N2CCOCC2)oc2c(-c3ccccc3)cccc12,93.4
O=C1Nc2ccc(Br)cc2/C1=C/c1cc2c([nH]1)CCCC2,88
COc1ccc(COc2ccc(Cc3cnc(N)nc3N)cc2OC)cc1,97.7
O=C1NC(=O)c2c1c1c3ccccc3[nH]c1c1[nH]c3cc(Br)ccc3c21,72.9
COc1cccc(-c2cc(=O)c3ccccc3o2)c1N,95.7
Cc1cc(Nc2cc(N3CCN(C)CC3)nc(Sc3ccc(NC(=O)C4CC4)cc3)n2)[nH]n1,68
CCCCc1c(-c2ccc(OC)cc2)[nH]c2nccnc12,80

# Block 3
# Species: mouse
# Sample: microsomes or S9
# Concentration: 2 µM
# Time: 0.5 h
SMILES,remaining compound
Cc1cc(C)n(-c2cccc(-c3cnc4n3CCOC4)c2)n1,0.07%
Cc1nn(-c2ccc(F)cc2)c(C)c1C1CC(=O)Nc2c1c(C)nn2-c1ncnc2[nH]cnc12 (centres unmarked),42.1%
CCn1cnnc1-c1nn(C)c2c1CN(C(=O)c1ccc(Cc3c(C)n[nH]c3C)o1)CC2,31%
O=C1NCC2C1CCCN2C(=O)c1cnn(-c2ccc(F)cc2)n1 (centres unmarked),81%
O=C1CCc2cc(S(=O)(=O)Nc3ccc(Cc4ccncc4)cc3)ccc2N1,47%
Cc1cc(OCC(O)CN2C(C)(C)CC(O)CC2(C)C)ccc1C(C)C (centres unmarked),2.87%
CC(c1ncc(-c2ccc(O)cc2)s1)C(O)(Cn1cncn1)c1ccc(F)cc1F (centres unmarked),13.8%
CNc1nc(CNc2nc(COC)nc3scc(-c4ccccc4)c23)cs1,1.91%
COc1cc(=O)n(C)cc1C(=O)N1CCc2ccccc21,72.3%
CCC(=O)N(CCOC)CC(=O)N1N=C(c2cccs2)CC1c1sccc1C (centres unmarked),5.84%
COc1ccc(C2C(C(=O)N3CCN(c4cc(Cl)ccc4C)CC3)CCC(=O)N2c2cc(OC)c(OC)c(OC)c2)cc1 (centres unmarked),12%

# Block 4
# Cell line: mouse MPNST tumor cells
# Technique: high-content nuclear imaging
# Refers to: cell number
# Concentration: 10 µM
# Time: 12 h
# Setting: mean of 2 replicates
# Relative to: plate mean
# Direction: higher = more cells
SMILES,nuclei count
CN(C)CCOC1=Cc2ccccc2Sc2ccc(Cl)cc21,-4.81 z-score
C=C(NC(=O)C(=C)NC(=O)c1csc(C2=N[C@@H]3c4csc(n4)[C@H]4NC(=O)c5csc(n5)[C@H]([C@](C)(O)[C@@H](C)O)NC(=O)[C@H]5CSC(=N5)/C(=C/C)NC(=O)[C@H]([C@@H](C)O)NC(=O)c5csc(n5)[C@]3(CC2)NC(=O)[C@H](C)NC(=O)C(=C)NC(=O)[C@H](C)NC(=O)[C@H]([C@@H](C)CC)N[C@@H]2C=Cc3c([C@H](C)O)cc(nc3[C@H]2O)C(=O)O[C@@H]4C)n1)C(N)=O,-3.77 z-score
CCN(CC)CCN(Cc1ccc(-c2ccc(C(F)(F)F)cc2)cc1)C(=O)Cn1c(SCc2ccc(F)cc2)nc(=O)c2c1CCC2,-5.41 z-score
Cc1cc(C(C)Nc2ccccc2)c2nc(N3CCOCC3)cc(=O)n2c1 (centres unmarked),-1.99 z-score
Cn1c(CNc2cccc(C(=O)NCc3ccccc3C(F)(F)F)c2)nnc1-c1ccncc1,-1.17 z-score
Cc1onc(-c2ccccc2)c1-c1ccc(S(N)(=O)=O)cc1,2.03 z-score and 1.2 z-score
Cc1onc(-c2ccccc2)c1C(=O)N[C@@H]1C(=O)N2[C@@H]1SC(C)(C)[C@@H]2C(=O)O,0.0323 z-score

# Repeated from above (block 1):
target,remaining binding [%]
"MKNK2 (Homo sapiens, UniProt Q9HBH9)",92
"Tyrosine-protein kinase ABL1, non-phosphorylated (ABL1, Homo sapiens, UniProt P00519, H396P)",88
"LIM domain kinase 2 (LIMK2, Homo sapiens, UniProt P53671)",96
"MAP2K1 (Homo sapiens, UniProt Q02750)",90
